Experimental data collected from several papers.
A part holds a random share of what one study measured. Positions count from the first letter of the parent shown.

Sample 1
Target: RNA binding protein fox-1 homolog 2, RRM domain, GST-SBP tag (RBFOX2, Homo sapiens, UniProt O43251-10, residues 100-194)
Technique: RNA Bind-n-Seq
Form: RNA
Sample: in vitro
Concentration: 365 nM
Notes: natural RNA segment, single round, ends assumed
Baseline: no-protein control
Direction: higher = stronger binding
All sequences stand within: GGGAGUUCUACAGUCCGACGAUC … UGGAAUUCUCGGGUGCCAA
Construct (chain): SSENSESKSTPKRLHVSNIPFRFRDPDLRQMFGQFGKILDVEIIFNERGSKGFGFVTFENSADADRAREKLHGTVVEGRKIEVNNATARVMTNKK
Oligonucleotide | RBNS enrichment (R)
ACAGCCAAGGAAGAUUUGAUGCAUUCAGAUUCUCGUGUAACACUUGUUGCUUGGCAACAGUACUGGUUGGGUUGACCAGUAAGUAGAAAAAGGCUAAAGGCUAUGCGAUA | 0.515
UGUGCCUGUGUGUGUAUAAAAAUAACCAUUGAAGCUAACUUGCUAAUGUACUUAGGCAAGCCACUUCCCAUCUCUGGGCCUCGUCUUUCCUCCCUCUAAAAUCAAAGAGC | 0.348
CUGUGUCUGGUUAUGUUGUCUGCACUUUUAUGAAAUCACUACAAUAGGUCUGCAUUGGAAAUGACUAUUAAUUUGUAAAGAAGUAAGUUUUAUUAAACACUGUCUAGAAA | 1.11
UUGCCAACUCCUCCAGCCACAGGCAAGGCCACGGCUCCGGGCUGUUGCGCUCUAAGGGUUCUGUGAUUGGAUGGAACAGAGCUGCUGGGGAGGAGACUGGAAGUUUCUGC | 1.61
CUGGAGAGUCCAGUUAAGGUAACCCAGAUUUUUGACAACCGCCUUCCUGCUGAGCCAAAGUUUUCUCAUUACCCCUCCACUGGGGAAGCAGCUGAGGCCCAGGGCCUUGC | 0.293
AUCCUUAUAAACUCCACUUUGUACUUUAGAUUUUAAAACUGGGGAAAAAUGUGAUAUUCUUUGGACCACUUUUUUAAUUUAUAUAAGCCUUAAUGAACAGUGUCUAUACA | 0.515
AUCUGGGUGUCCUCAGCCCCUGUGGGGCAGCCAAGUUCCUGAUAGCACUUGUGCCUCAGCCCCUCACCUGGCCACCUGCCAGGGCACCUGCAACCCUAGCAAUACCAUGC | 0.211
UAAUGUAACUAAGCAUCUCCACUAUGGUGUGUGCCUUUUAUAAAGGAAAAGAGAGAAAAAGGCAAAGCAAGGUUGUGGCCUUAGGUUGGACCUGGAAUAUCCCUUAUUGC | 1.24
UGGAUUUGUAUUCUGUUCAGUUGUAGUCUACACUGCAGUCUUAUUCCUGGUUCAAACUACCUCUUUAAAUUGAUUUGUCUUGUGCUGGUCUGUUAAAUCCUGCCCUCCUU | 0.598
UGUUCCAGCCUUCAUCCUUCCUGGCUGUUGCUUUUCCUCUUAAGGGCCUCAGAACUCUUGCUCUUCCUGGGCUGAGGGGGAAUGAGUGUUCUUGCCAUUUGCCAGCCUAA | 0.543
CACCCAUUGAACAGGAUGUUAAUGAGAACACACUGAAGAACUUGGAGUCGUAUGACAGCCACAAGGCUGGAAAUCACAAUGCACUUGCUGCCGUUCUGACCUGGGACUGG | 0.586
AAGCAACCUAGUUUAUGGGGCAGCUGGACUUUGCAUGUUAGAGUGAGCCCCAAGCCCCUUGGCCCACCACCCUGUUGUCUGAAGGGCUCUGUCUCACUCCACCUCCUUAU | 23.3

Sample 2
Target: CCND1, cyclin fold, Cln2 fusion (human)
Technique: yeast growth competition, sequencing
Sample: yeast
Notes: weak parent motif
Baseline: not given
Direction: higher = stronger binding
Starting sequence: CDC6 docking peptide (human); TLKGRRLVFDNQL
Variant | normalised enrichment score
TLKGRRLVFDNML [Q12M] | 0.576
TLKGRRGVFDNQL [L7G] | 0.0358
TLKGSRLVFDNQL [R5S] | 0.976
TLKGRRLVFDSQL [N11S] | 0.0624
TLDGRRLVFDNQL [K3D] | 0.183
TLKGRRLVRDNQL [F9R] | -0.44
TLKGRRLVFDYQL [N11Y] | 0.859
TLKGRRLVFYNQL [D10Y] | 0.418
TLKLRRLVFDNQL [G4L] | -0.233
TLKGRRLVFDNQE [L13E] | 1.09
TLKGCRLVFDNQL [R5C] | 0.634
TIKGRRLVFDNQL [L2I] | 0.623
TLKIRRLVFDNQL [G4I] | 0.645
TLKGRRLVFDNQS [L13S] | 0.465
TLKGRLLVFDNQL [R6L] | 0.659
TLFGRRLVFDNQL [K3F] | 0.0511
SLKGRRLVFDNQL [T1S] | 0.297
TLKGIRLVFDNQL [R5I] | 0.423
TLKGRRLVFDNQK [L13K] | -0.555
TLKGMRLVFDNQL [R5M] | 0.0876
TLKGPRLVFDNQL [R5P] | 0.329
TLKGRRTVFDNQL [L7T] | -0.327
TLKGRRLVFNNQL [D10N] | 0.601
TLKGRRLVFTNQL [D10T] | -0.283
TLKGHRLVFDNQL [R5H] | -0.39

Sample 3
Target: Ras GTPase-activating protein-binding protein 1, full length (G3BP1, Homo sapiens, UniProt Q13283)
Chain of UniProt Q13283 (whole entry, looked up): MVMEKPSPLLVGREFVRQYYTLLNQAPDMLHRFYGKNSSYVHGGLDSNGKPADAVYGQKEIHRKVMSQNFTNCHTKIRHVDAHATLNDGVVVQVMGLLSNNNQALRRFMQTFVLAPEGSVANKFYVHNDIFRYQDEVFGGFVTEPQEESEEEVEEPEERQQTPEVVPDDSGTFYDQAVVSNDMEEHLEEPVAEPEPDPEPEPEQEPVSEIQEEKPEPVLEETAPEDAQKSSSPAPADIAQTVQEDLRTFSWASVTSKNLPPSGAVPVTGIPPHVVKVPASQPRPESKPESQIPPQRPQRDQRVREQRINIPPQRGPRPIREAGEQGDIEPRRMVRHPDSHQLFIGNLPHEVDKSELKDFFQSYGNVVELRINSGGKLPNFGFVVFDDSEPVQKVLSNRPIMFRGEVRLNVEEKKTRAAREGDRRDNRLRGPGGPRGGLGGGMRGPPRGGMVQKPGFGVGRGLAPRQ
Technique: RNA Bind-n-Seq
Form: RNA
Sample: in vitro
Concentration: 200 nM
Notes: whole 134-nt RNA, ends assumed
With: 150 mM LiCl
Baseline: input library
Direction: higher = stronger binding
Library: 7-deaza-guanosine replaces G
All sequences stand within: GGGAGUUCUACAGUCCGACGAUC … UGGAAUUCUCGGGUGUCAAGG
Oligonucleotide | log2 enrichment
ACCAUGCAGGUGGGCAUCUUUGGGAAGUGGGGCAAGGGGGGGAUAGGGAGGGGGGUAACACUUUGGGAACAGGUGGUCCCCGGUCGUUUC | 0.424
CCUGUGCUACACAUCGUAUGUACCGAAUCGGGGAAAAAAGGGGAAAAAAGGAAAAAAGGGGAAAGUAUUAUGUUACGCCGUUCGGAUCUG | 0.803
UCCUGUGCUACACAUCGUAUGUACCGAAUCGGGGAAAAAGGAAAAAGGGGAAAAAGGGGAAAGUAUUAUGUUACGCCGUUCGGAUCUGCA | -0.287
CUGUGCUACACAUCGUAUGUACCGAAUCGGGGAAAAAAAGGGGUUUUUUUGGGGUUUGGGGAAAGUAUUAUGUUACGCCGUUCGGAUCUG | -1.72
UGGGAGGUGGAUUUUGUUUAUUUUUUUAGCUCAUUUCCAGGGGUGGGACUUUUUUUUUAAUAUGUGUCAUGAAUAAAGUUGUUUUUGAAA | -0.453
UCAAGUCCUGUGCUACACAUCGUAUGUACCGAAUCGGGUUGGGGUUGGGGUUGGAAAGUAUUAUGUUACGCCGUUCGGAUCUGCACUUCC | -0.313
ACCAUGCAGGUGGGCAUCUUUGGGAAGUGGGGCAAGGGGGGGAUAGAAAGGGGGGUAACACUUUGGGAACAGGUGGUCCCAGGUCGUUUC | 0.326
UUGUGGUAUUUUAUUUACUUAUUUUUUUAAAUCUUCCAUUACAGCCAUGCCUUUCUUGGACAUCCAGAAAAGGUUCGGCCUUAACAUAGA | 1.38
AAGUCCUGUGCUACACAUCGUAUGUACCGAAUCGGGAAAAGGGAAAAGGGAAAAGGAAAGUAUUAUGUUACGCCGUUCGGAUCUGCACUU | -0.197
CCUGUGCUACACAUCGUAUGUACCGAAUCGGGGCCCCCCGGGGCCCCCCGGGCCCCCCGGGAAAGUAUUAUGUUACGCCGUUCGGAUCUG | -1.76
UUGUGAUAGCCAAGUGGGACUACACCGCCCAGCAGGACCAGGAGCUGGACAUCAAGAAGAACGAGCGGCUGUGGUUGCUGGACGACUCCA | -0.831

Sample 4
Target: ABI1, truncated, D143A, DHFR fusion (Arabidopsis thaliana)
Technique: DHFR PCA, deep sequencing
Sample: yeast
Notes: methotrexate growth selection, single substitutions
With: (+)-ABA 4.8 µM
Baseline: wild-type fitted maximum
Direction: higher = stronger binding
Starting sequence: PYL1, truncated, DHFR fusion (Arabidopsis thaliana); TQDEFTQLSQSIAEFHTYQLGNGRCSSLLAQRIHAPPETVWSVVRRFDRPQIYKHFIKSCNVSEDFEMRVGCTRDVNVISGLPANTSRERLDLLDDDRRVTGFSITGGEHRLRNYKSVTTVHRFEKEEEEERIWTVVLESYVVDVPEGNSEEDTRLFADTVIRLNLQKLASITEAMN
Variant | relative binding score [%]
D3M | 62.7
R32K | 75
P83D | 22
G102P | -15.4
F103W | 6.26
L138D | -7.06
E67T | 71.2
D144E | 29
F5S | 54.5
F103S | -2.5
L20W | 51
T173W | -10.4
E131D | 92.4
V78S | 14.6
N165M | -18.2
T106E | 50.3
I105R | -12
S80I | 22.6
S59Q | 58.4
I162V | 79.8
F15H | 62.3
Y115R | -18.2

Some of these lines once more (sample 2):
Variant | normalised enrichment score
TLKGRRLVFDYQL [N11Y] | 0.859
TLKGRRLVFYNQL [D10Y] | 0.418
TLKLRRLVFDNQL [G4L] | -0.233
TLKGRRLVFDNQE [L13E] | 1.09
TLKGCRLVFDNQL [R5C] | 0.634
TIKGRRLVFDNQL [L2I] | 0.623
TLKIRRLVFDNQL [G4I] | 0.645
TLKGRRLVFDNQS [L13S] | 0.465
